Experimental data of several laboratories.
Protocols differ between the studies behind these lines. ± gives the spread as reported.

CCCC[C@H](NC(=O)[C@@H](NC(=O)[C@H](CC(=O)O)NC(=O)[C@H](CCC(N)=O)NC(=O)[C@H](CC(C)C)NC(=O)[C@H](CC(C)C)NC(=O)[C@H](CCCN)NC(=O)[C@H](CCCNC(=N)N)NC(=O)[C@H](C)NC(=O)[C@H](CO)NC(=O)[C@H](CC(C)C)NC(=O)[C@H](CCC(N)=O)NC(=O)[C@H](CC)NC(=O)[C@H](CC(C)C)NC(=O)[C@@H](NC(=O)[C@H](CCCN)NC(=O)[C@H](CCCNC(=N)N)NC(=O)[C@H](Cc1ccc(O)cc1)NC(=O)[C@H](CO)NC(=O)[C@H](CCC(N)=O)NC(=O)[C@@H](NC(=O)[C@H](Cc1ccccc1)NC(=O)[C@@H](NC(=O)[C@H](C)NC(=O)[C@H](CC(=O)O)NC(=O)[C@H](C)NC(=O)[C@H](Cc1ccc(O)cc1)NC)[C@@H](C)CC)[C@@H](C)O)C(C)C)[C@@H](C)CC)C(=O)N[C@@H](CC(=O)O)C(=O)N[C@@H](CCCNC(=N)N)C(=O)NC  serum GH level (GH release, ELISA; male Sprague-Dawley rat, anaesthetised, serum; subcutaneous, 3 µg/kg, 30 min): 282 ± 17.8 ng/mL
COc1ccc(C2CC(c3ccc(C)cc3)=Nc3ccccc3S2)cc1OC (stereo not shown)  serum ALT (Wistar rat, streptozotocin-induced diabetes, serum; 10 mg/kg, 28 days): 23.7 ± 2.3 IU/L
CC(CCC(=O)NCc1ccc(C(=O)NO)cc1)C1CCC2C3C(O)CC4CC(O)CCC4(C)C3CCC12C (stereo not shown)  serum albumin (PCK rats; oral gavage, 15 mg/kg/day, 5 months; baseline: untreated): increased
O=c1c(OCc2ccccc2)c(-c2cccc([N+](=O)[O-])c2)oc2ccccc12  serum LDL cholesterol (diabetic rat; 5 mg/kg, 28 days, p-nitrophenyl β-glucoside induced): 128 ± 3.39 mg/dL
Cc1cc(O)c(C=O)c2c1C(=O)Oc1c(CO)c(O)c3c(c1O2)C(O)OC3=O (stereo not shown)  serum insulin (rat, male, streptozotocin-induced diabetes; 5 mg/kg, 0 weeks): 3.39 ± 0.13 mIU/L
O=c1c(OCc2ccccc2)c(-c2ccc(Cl)cc2)oc2ccccc12  serum total cholesterol (diabetic rat; 5 mg/kg, 28 days, p-nitrophenyl β-glucoside induced): 145 ± 4.79 mg/dL
CCCC[C@H](NC(=O)[C@@H](NC(=O)[C@H](CC(=O)O)NC(=O)[C@H](CCC(N)=O)NC(=O)[C@H](CC(C)C)NC(=O)[C@H](CC(C)C)NC(=O)[C@H](CCCN)NC(=O)[C@H](CCCNC(=N)N)NC(=O)[C@H](C)NC(=O)[C@H](CO)NC(=O)[C@H](CC(C)C)NC(=O)[C@H](CCC(N)=O)NC(=O)[C@H](CC)NC(=O)[C@H](CC(C)C)NC(=O)[C@@H](NC(=O)[C@H](CCCN)NC(=O)[C@H](CCCNC(=N)N)NC(=O)[C@H](Cc1ccc(O)cc1)NC(=O)[C@H](CO)NC(=O)[C@H](CCC(N)=O)NC(=O)[C@@H](NC(=O)[C@H](Cc1c(F)c(F)c(F)c(F)c1F)NC(=O)[C@@H](NC(=O)[C@H](C)NC(=O)[C@H](CC(=O)O)NC(=O)[C@@H](C)NC(=O)[C@H](Cc1ccc(O)cc1)NC)[C@@H](C)CC)[C@@H](C)O)C(C)C)[C@@H](C)CC)C(=O)N[C@@H](CC(=O)O)C(=O)N[C@@H](CCCNC(=N)N)C(=O)NC  serum GH level (GH release, ELISA; male Sprague-Dawley rat, anaesthetised, serum; subcutaneous, 3 µg/kg, 15 min): 320 ± 32.7 ng/mL
COc1ccc(C2CC(c3ccc(C)cc3)=Nc3ccccc3S2)cc1 (stereo not shown)  serum creatinine (Wistar rat, streptozotocin-induced diabetes, serum; 10 mg/kg, 28 days): 0.73 ± 0.31 mg/dL
CN(C)c1ccc(-c2oc3ccccc3c(=O)c2OCc2ccccc2)cc1  serum alkaline phosphatase (diabetic rat; 7.5 mg/kg, p-nitrophenyl β-glucoside induced): 193 ± 4.03 IU
CCCC[C@H](NC(=O)[C@@H](NC(=O)[C@H](CC(=O)O)NC(=O)[C@H](CCC(N)=O)NC(=O)[C@H](CC(C)C)NC(=O)[C@H](CC(C)C)NC(=O)[C@H](CCCN)NC(=O)[C@H](CCCNC(=N)N)NC(=O)[C@H](C)NC(=O)[C@H](CO)NC(=O)[C@H](CC(C)C)NC(=O)[C@H](CCC(N)=O)NC(=O)[C@H](CC)NC(=O)[C@H](CC(C)C)NC(=O)[C@@H](NC(=O)[C@H](CCCN)NC(=O)[C@H](CCCNC(=N)N)NC(=O)[C@H](Cc1ccc(O)cc1)NC(=O)[C@H](CO)NC(=O)[C@H](CC(N)=O)NC(=O)[C@@H](NC(=O)[C@H](Cc1ccccc1)NC(=O)[C@@H](NC(=O)[C@H](C)NC(=O)[C@H](CC(=O)O)NC(=O)[C@@H](CC)NC(=O)CCc1ccc(O)cc1)[C@@H](C)CC)[C@@H](C)O)C(C)C)[C@@H](C)CC)C(=O)N[C@@H](CO)C(=O)N[C@@H](CCCNC(=N)N)C(=O)NCCCC(N)=O  serum GH level (GH release, ELISA; male rat, anaesthetised, serum; intravenous, 1 µg/kg, 15 min): 297 ± 45.6 ng/mL

Repeated from above:
CC(CCC(=O)NCc1ccc(C(=O)NO)cc1)C1CCC2C3C(O)CC4CC(O)CCC4(C)C3CCC12C (stereo not shown)  serum albumin (PCK rats; oral gavage, 15 mg/kg/day, 5 months; baseline: untreated): increased
